Assay results from different studies.
Numbered parts are unrelated; each lists some results of a single study.

Set 1 — technique: protein-binding microarray; form: double-stranded DNA, one strand shown; medium: in vitro; tested at: 940 nM top; notes: 60-bp whole probe; with: salmon DNA 0.4 mg/ml; reference: random background probes; direction: higher = stronger binding; quantity: fitted relative affinity; constant ends, left off below: GCCTAGCAC … GTCTTGATTCGCTTGACGCTGCTG
Target: Interferon regulatory factor 5, full length, phosphomimetic (IRF5, Homo sapiens, UniProt Q13568-2, residues 1-514, S451D/S453D/S456D/S462D)
GACGGTATCCTTATACTGACGTGCTAG: 0.0623 z-score
TCAGGTTTCGACTTTCGGTTAGTGCTA: 8.47 z-score
CTAATTTTCATTTTCCAAATGTGCTAG: 1.03 z-score
GACGATCTCAGTTTCTAGACGTGCTAG: 1.28 z-score
TCAGACCTCGTCTCTATCACTGTGCTA: 0.386 z-score
TTAGGTACCCTACTGCTTTAGTGCTAG: -0.165 z-score
GACGAATTCAGTCTCGAGACGTGCTAG: 1.56 z-score
TCAGTTTTCATTTTATGACTGTGCTAG: 1.47 z-score
TTAGATTTCGGGTTTAGATTAGTGCTA: 1.61 z-score

Set 2 — organism: Saccharomyces cerevisiae; observed: binding; technique: competitive growth deep sequencing; form: peptide; strain: cyclin D2-Cln2 fusion strain; tested at: concentration not given; notes: peptide tiling library; direction: direction not given; quantity: growth enrichment score
NEGVSNAVRRSLYIRD: -0.941
KSKHEEEEWTDDDLVE: 0.62
DSGFCLDSPGPLDSKE: 0.721
NSMKELNFSHLPSNSV: 0.804

Set 3 — technique: RNA Bind-n-Seq; form: RNA; medium: in vitro; tested at: 200 nM; notes: whole 134-nt RNA, ends assumed; with: 150 mM LiCl; reference: input library; direction: higher = stronger binding; quantity: log2 enrichment; library: 7-deaza-guanosine replaces G
Target: Fragile X messenger ribonucleoprotein 1, C-terminal low-complexity region (Fmr1, Mus musculus, UniProt P35922)
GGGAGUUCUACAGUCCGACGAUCAAGUCCUGUGCUACACAUCGUAUGUACCGAAUCAAAUUUAAAUUUUUAAACCCAAAAAAGUAUUAUGUUACGCCGUUCGGAUCUGCACUUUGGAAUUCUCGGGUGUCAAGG: -0.505
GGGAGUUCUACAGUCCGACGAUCUGUGCUACACAUCGUAUGUACCGAAUCGGCCCCCCCGGGGCCCCCCCGGGGCCCCCCCGGGGAAAGUAUUAUGUUACGCCGUUCGGAUCUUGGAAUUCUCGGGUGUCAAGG: -2.62
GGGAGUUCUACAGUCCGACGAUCUGGCCCUGGUGGCAUGCGGGGAGGAAGAGGUUGCCUCAUGGAUCGUGGUGGUCCCGGUGGAAUGUUCAGAGGUGGCCGUGGUGGAGACAGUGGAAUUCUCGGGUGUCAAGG: 0.184
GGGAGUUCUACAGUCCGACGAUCUCCUGUGCUACACAUCGUAUGUACCGAAUCGGGGUUUUUUUGGGGAAAAAGGGGUGGGGAAAGUAUUAUGUUACGCCGUUCGGAUCUGCAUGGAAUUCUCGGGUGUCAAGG: -1.05
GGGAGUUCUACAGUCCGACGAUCAAGUCCUGUGCUACACAUCGUAUGUACCGAAUCGGGGUUUGGGGAAAGGGGUGGGGAAAGUAUUAUGUUACGCCGUUCGGAUCUGCACUUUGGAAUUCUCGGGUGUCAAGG: -1.23
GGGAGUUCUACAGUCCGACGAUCCCUCAGUGUCAUUUAUGAAAAGAGGGGACCAGAAGCCAAAGACUUAGUAUAUUUUCUUUUCCUCUGUCCCUUCCCCCAUAAGCCUCCAUUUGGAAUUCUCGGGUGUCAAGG: 1.04

Set 4 — technique: RNA Bind-n-Seq; form: RNA; medium: in vitro; tested at: 365 nM; reference: no-protein control; direction: higher = stronger binding; quantity: RBNS enrichment (R)
Target: RNA binding protein fox-1 homolog 2, RRM domain, GST-SBP tag (RBFOX2, Homo sapiens, UniProt O43251-10, residues 100-194)
Notes: natural RNA segment, single round, ends assumed
Residues (chain): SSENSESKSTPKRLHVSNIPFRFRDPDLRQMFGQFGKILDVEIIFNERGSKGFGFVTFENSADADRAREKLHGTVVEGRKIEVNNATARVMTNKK
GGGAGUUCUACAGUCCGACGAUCCAAUGAAGGAAAUAAAAAAGUCUCUAUUUAAAUUCUUUUUUAAAUUUUCUUCAGUUGGUGUGUUUUUGGGAUGUCUUAUUUUUAGAUGGUUACACUGUUAGAACACUAUUUGGAAUUCUCGGGUGCCAA: 0.458
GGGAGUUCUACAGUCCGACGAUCCUCACUCUCGAAUGCAAGUGGGAGAGGGAAAAUGACUCGGGACGCCAUUGUAACGGUUCCUGGAAGCUGGGCCCUCUCAUUGGCAUAUACAGUACUCCUCGCUGCAGGGCUGGAAUUCUCGGGUGCCAA: 1.6
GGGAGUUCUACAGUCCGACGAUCCACCUUGAUGAUAAUGGACUGAACCUCUGAACCUGCAAGCCAGCCCCAAUUAAAUGUUGUCCUUAUAAGAGUUGCCUUGGUCACGGUGUCUGUUCACAGCAGUAAAAACUUGGAAUUCUCGGGUGCCAA: 0.406
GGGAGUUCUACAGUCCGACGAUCGAAAAUGGUAAUGAAAGGGCAUGCCCAGGCUCUUUAGCAGCCCAGGGAAACAGAGAAGUCUCCCUUAAAGGCAGGGCCUGGGAGGAAUGGUGGCAAAGGUAUAAUGUAUCUGGAAUUCUCGGGUGCCAA: 1.98
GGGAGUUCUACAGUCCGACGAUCCCUAAAGAAACAAGCAAGAAAGUGAGGGCCAUCACUAGGGUUGGCUUUGGGGAGGGGAAAACUAAGGACUGCUUUUGCCAAAUGAUAUUUUUGAUAAUGUAAGGAAACACUGGAAUUCUCGGGUGCCAA: 1.1
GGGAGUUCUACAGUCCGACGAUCUUUUUCUCUCUCCAAGGAUUCUUUCCAUAGCCCUGGCUGUCCUGAAACUCAUCCUGUAGAGCAGGCUGGCCUUGAACUCACAGAGCUCCACCUGCCCCUGCCUCUGAUCCUGGAAUUCUCGGGUGCCAA: 0.243
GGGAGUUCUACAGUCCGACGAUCUUUGUUAGAUCAGCAUAUAAUUCAUAUAACUACUUAAGUUUUUAUGAUGUAUCAUCAAUUUUAUUACUUUCUGUCUAUGUUUGCAAAAGUAGUAGAGUUUAAUUCACCAUUGGAAUUCUCGGGUGCCAA: 0.587
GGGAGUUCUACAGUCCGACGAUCGCAGUGUCCAGAAGCGGCCUGUGCGUUCCCUUCAGUACUGCAGCGCCACCCAGUGGAAGGACACUCUUGGCUCGUUUGGGCUCAAGGCACCGCAGCCUGUCAGCCAACAUUGGAAUUCUCGGGUGCCAA: 0.638
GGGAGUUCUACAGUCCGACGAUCUUGUGGGGUGACGAGGGGUGUAGAAUACCCCGAACCCUCUUCCAGGACAAAGCCAGGAGUGGAGCUGAGGAAGACUAAGGUAGAAACUCUGUGCCCAAGCUGACACAGAAUGGAAUUCUCGGGUGCCAA: 0.471
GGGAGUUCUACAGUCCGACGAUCGUUGUUGUUUGUUGUUCAUUUAAACAUGUAUUUAGAACUGCACUUUGUCAGAACCUUCCAGUCCCUUCUUACUCCCCGGUUAACUGAGGUUUUUACCAAUUUCUAGAGCAUGGAAUUCUCGGGUGCCAA: 2.77
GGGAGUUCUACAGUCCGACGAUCACAAGUUUCAGAGCAUGGAGACAUUCCUGCUGAAUCGCCUUCUCACCUCCUCGGCAAUUGCUCAUUCUAGGGUUGGGCAUCAUAGUUGGUCAGUCUUAAUUCCCAUGCCAUGGAAUUCUCGGGUGCCAA: 0.518

Set 5 — technique: protein binding microarray; form: double-stranded DNA, one strand shown; medium: in vitro; tested at: not given; reference: not given; direction: higher = stronger binding; quantity: E-score
Target: Histone acetyltransferase KAT6A, winged helix 1, GST fusion (KAT6A, Homo sapiens, UniProt Q92794, residues 1-85)
Notes: 8-mer, flanks averaged, mean of 2 arrays, mostly near background
Residues (chain): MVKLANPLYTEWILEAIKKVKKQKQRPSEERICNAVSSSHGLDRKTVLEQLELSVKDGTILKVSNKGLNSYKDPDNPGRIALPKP
ACCTTAAA: -0.0446
CATTTCCC: 0.0291
ATGCCTCC: 0.0725
CGGCACTC: 0.301
ATCCTAAC: -0.0681
ACTAGGTC: -0.0284
AGGAGTGG: -0.158
CAACATTA: -0.149
AATCACCG: 0.132
AAATACCC: 0.0408
AAATATTA: -0.0301
GCGCAGAC: 0.308
GGGAAGGA: -0.0154
CCGGGGTA: 0.193
ACTAACAC: -0.0278
CCCAGGAC: -0.0435
GTAGCTCA: -0.0473

Set 6 — technique: universal PBM; form: double-stranded DNA, one strand shown; medium: in vitro; tested at: 600 nM; direction: higher = stronger binding; quantity: E-score
Target: Sal-like protein 4, full length isoform A (SALL4, Homo sapiens, UniProt Q9UJQ4, residues 1-1053)
UniProt Q9UJQ4, sequence (whole entry, looked up): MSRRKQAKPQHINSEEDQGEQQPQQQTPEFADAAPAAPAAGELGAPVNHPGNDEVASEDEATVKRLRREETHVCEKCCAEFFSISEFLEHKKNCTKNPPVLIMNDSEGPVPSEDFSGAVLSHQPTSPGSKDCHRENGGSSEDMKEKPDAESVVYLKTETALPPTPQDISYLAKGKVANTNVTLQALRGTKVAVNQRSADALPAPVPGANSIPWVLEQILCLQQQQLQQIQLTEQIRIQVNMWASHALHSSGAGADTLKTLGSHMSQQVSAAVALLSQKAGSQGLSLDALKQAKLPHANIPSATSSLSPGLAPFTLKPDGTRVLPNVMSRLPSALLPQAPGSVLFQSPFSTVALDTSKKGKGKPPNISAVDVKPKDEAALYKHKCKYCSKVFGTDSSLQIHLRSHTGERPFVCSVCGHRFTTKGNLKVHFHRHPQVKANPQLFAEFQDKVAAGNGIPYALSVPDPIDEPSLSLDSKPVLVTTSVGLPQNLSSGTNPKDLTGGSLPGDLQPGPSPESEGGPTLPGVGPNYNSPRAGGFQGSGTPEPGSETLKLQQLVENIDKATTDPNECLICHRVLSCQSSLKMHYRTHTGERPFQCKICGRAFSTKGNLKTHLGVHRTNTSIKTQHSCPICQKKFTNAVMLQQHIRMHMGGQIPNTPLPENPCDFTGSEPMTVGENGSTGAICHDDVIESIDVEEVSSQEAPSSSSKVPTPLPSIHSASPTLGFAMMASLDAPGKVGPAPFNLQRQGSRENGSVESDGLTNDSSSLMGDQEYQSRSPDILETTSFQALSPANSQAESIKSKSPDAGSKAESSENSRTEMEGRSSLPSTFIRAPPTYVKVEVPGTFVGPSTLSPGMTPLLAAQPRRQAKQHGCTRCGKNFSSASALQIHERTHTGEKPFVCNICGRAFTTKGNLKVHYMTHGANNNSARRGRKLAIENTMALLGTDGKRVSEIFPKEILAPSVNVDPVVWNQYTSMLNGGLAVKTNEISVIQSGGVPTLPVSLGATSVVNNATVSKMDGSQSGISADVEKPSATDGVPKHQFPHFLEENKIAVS
Notes: 8-mer, flanks averaged, mean of replicates
ACTTGATA: 0.248
GCCGTTAC: -0.144
ACGACTAC: -0.0785
AACCGCCT: -0.0737
GCTGTAAA: 0.169
AAAGATCC: 0.0111
ACGTATAC: 0.166
ACTGCGTA: -0.231
CAGGGTTC: -0.291
CCTTCGCC: -0.218
ATTTGTCG: 0.17
CCGTACGG: -0.318

A few entries again (set 5):
ACTAACAC: -0.0278
ATGCCTCC: 0.0725
GGGAAGGA: -0.0154
AAATACCC: 0.0408
AATCACCG: 0.132
